Results pooled from the literature.
Each line is one published result; not all experiments were run side by side.
Cell line: K562

Cc1ccc(-c2c(C#N)c(N)nc3c2Cc2cc(O)ccc2-3)o1
IC50 (cell viability, CellTiter-Glo; no inhibition at 100 µM): > 100000 nM

CCCON(Cc1ccc(C(=O)NO)cc1)C(=O)Nc1cc(C)cc(C)c1
IC50 (cell growth or viability, ATP luminescence; 72 h): 1620 nM

O=C(Nc1nnc2c1c(-c1ccc(Cl)cc1)nc1sc(=Cc3ccco3)c(=O)n12)c1ccccc1 (mixture of isomers)
cell growth (SRB; 10 µM, NCI60 single-dose screen; relative to: untreated): 26.5%

NC(=O)c1ccc(-c2ccccc2Cl)c2c3c([nH]c12)CCC(N)C3 (centres unmarked)
IC50 (cell growth or viability; 96 h): 26.5 nM

C=C(NC(=O)c1csc(-c2ccc(NC(=O)CCCCCBr)cc2)n1)C(=O)NC(=C)C(=O)OC
EC50 (cell growth or viability): 1200 nM

Cn1ncc(-c2ccc3c(=O)[nH]nc(CN)c3c2)c1-c1c(F)c(Cl)cc(OC2CC2)c1C#N
IC50 (cell viability, inhibitor, CellTiter-Glo; 120 h, baseline-subtracted): 4380 nM

COc1cc(O)ccc1-c1c[nH]c2ncc(-c3cncc(C(=O)N(C)C)c3)cc12
GI50 (cell growth or viability, MTT; 72 h): 142 nM

C/C1=C/[C@H](C)C[C@H](C)OC(=O)C[C@H](c2ccc(O)cc2)NC(=O)[C@@H](Cc2ccc(O)c(I)c2)N(C)C(=O)[C@H](C)NC(=O)[C@@H](C)C1
GI50 (cell growth or viability): 10.6 µg/mL

COc1ccc(O)cc1-c1c[nH]c2ncc(-c3cncc(C(=O)N(C)C)c3)cc12
CRKL and STAT5 phosphorylation (inhibitor, Western blot; concentration not given, 6 h, hypoxia): inhibited

Cc1sc2c(c1C)C(c1ccc(Cl)cc1)=N[C@@H](CC(=O)NCCN(C)CCCCNC(=O)CCCCOc1cccc3c1C(=O)N([C@H]1CCC(=O)NC1=O)C3=O)c1nnc(C)n1-2
IC50 (cell growth or viability, CCK-8; 72 h): 390 nM

N#Cc1c(N)nc2c(c1-c1cccs1)Cc1cc(O)ccc1-2
IC50 (cell viability, CellTiter-Glo; no inhibition at 100 µM): > 100000 nM

Cc1[nH][n+]([Pt-2]([Cl])([n+]2[nH]c(C)c(CSCc3ccccc3)c2C)[n+]2[nH]c(C)c(CSCc3ccccc3)c2C)c(C)c1CSCc1ccccc1.[Cl-]
selectivity index (cytotoxicity; relative to: IC50 HEK293 over IC50 K562): 1.6

N#Cc1c(N)nc2c(c1-c1ccc(CO)o1)Cc1cc(O)ccc1-2
IC50 (cell growth or viability, ATP luminescence): 25100 nM

Cc1[nH][n+]([Pd-2]([Cl])([Cl])[n+]2[nH]c(C)c(CSCc3ccccc3)c2C)c(C)c1CSCc1ccccc1
selectivity index (cytotoxicity; relative to: IC50 HEK293 over IC50 K562): 1.8

Cc1ccc([N+](=O)[O-])cc1S(=O)(=O)N(C)/N=C/c1cnc2ccc(Br)cn12
IC50 (cell growth or viability): 416 nM

COC(=O)[C@H](C)NC(=O)[C@H](C)NC(=O)c1csc(-c2cccnc2)n1
EC50 (cell growth or viability): > 30000 nM

C/C1=C/[C@H](C)C[C@H](C)OC(=O)C[C@H](c2ccc(O)cc2)NC(=O)[C@@H](Cc2ccc(O)cc2)N(C)C(=O)[C@H](C)NC(=O)[C@@H](C)C1
GI50 (cell growth or viability): 29.5 µg/mL

COc1ccccc1-c1c[nH]c2ncc(-c3cncc(C(=O)N(C)C)c3)cc12
GI50 (cell growth or viability, MTT; 72 h): 110 nM

CN1CCC(N[C@@H]2CCc3[nH]c4c(C(N)=O)ccc(-c5ccccc5Cl)c4c3C2)CC1
IC50 (cell growth or viability): 24.1 nM

CC(C)c1ccc(N(C)c2ccc3c(c2)OCC[C@H]3CNc2cnccc2C(=O)O)cc1
IC50 (cell growth or viability, ATP luminescence; 7 days): 4.56 nM

Cc1[nH][n+]([Pd-2]([Cl])([Cl])[n+]2[nH]c(C)c(CSC3CCCCC3)c2C)c(C)c1CSC1CCCCC1
selectivity index (cytotoxicity; relative to: IC50 HEK293 over IC50 K562): 1.4

CCN(C(=O)c1cc(F)ccc1Oc1nncnc1N1CCC2(C1)CN([C@H](CCCN(C)CCOC)C(C)C)C2)C(C)C
GI50 (cell growth or viability; 72 h): > 10000 nM

COc1cc(/C=C/C(=O)/C=C(O)/C=C/c2ccc(OCC(=O)N3CCOCCOCCOCCOCC3)c(OC)c2)ccc1OCC(=O)N1CCOCCOCCOCCOCC1
inhibition (cell growth or viability, SRB; 25 µM): 94.5%
